{"data": "Measured values from different studies", "note": "Parts stem from different laboratories: compare values within a part only.", "sequence of UniProt Q9C0B0 (30-357, looked up)": "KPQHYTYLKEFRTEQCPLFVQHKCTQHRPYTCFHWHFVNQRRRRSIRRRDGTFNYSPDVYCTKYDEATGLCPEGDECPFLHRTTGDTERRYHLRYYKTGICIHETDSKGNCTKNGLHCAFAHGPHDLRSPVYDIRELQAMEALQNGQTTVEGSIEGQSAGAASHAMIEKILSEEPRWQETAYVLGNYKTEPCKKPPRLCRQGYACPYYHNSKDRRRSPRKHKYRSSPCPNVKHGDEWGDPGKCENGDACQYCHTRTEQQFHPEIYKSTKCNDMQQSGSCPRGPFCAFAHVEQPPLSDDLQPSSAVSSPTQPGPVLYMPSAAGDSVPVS"}
{"data": "Set 1", "target": "Sal-like protein 4, full length isoform A (SALL4, Homo sapiens, UniProt Q9UJQ4, residues 1-1053)", "method": "universal PBM", "form": "double-stranded DNA, one strand shown", "medium": "in vitro", "concentration": "600 nM", "setting": "8-mer, flanks averaged, mean of replicates", "direction": "higher = stronger binding", "sequence of UniProt Q9UJQ4 (whole entry, looked up)": "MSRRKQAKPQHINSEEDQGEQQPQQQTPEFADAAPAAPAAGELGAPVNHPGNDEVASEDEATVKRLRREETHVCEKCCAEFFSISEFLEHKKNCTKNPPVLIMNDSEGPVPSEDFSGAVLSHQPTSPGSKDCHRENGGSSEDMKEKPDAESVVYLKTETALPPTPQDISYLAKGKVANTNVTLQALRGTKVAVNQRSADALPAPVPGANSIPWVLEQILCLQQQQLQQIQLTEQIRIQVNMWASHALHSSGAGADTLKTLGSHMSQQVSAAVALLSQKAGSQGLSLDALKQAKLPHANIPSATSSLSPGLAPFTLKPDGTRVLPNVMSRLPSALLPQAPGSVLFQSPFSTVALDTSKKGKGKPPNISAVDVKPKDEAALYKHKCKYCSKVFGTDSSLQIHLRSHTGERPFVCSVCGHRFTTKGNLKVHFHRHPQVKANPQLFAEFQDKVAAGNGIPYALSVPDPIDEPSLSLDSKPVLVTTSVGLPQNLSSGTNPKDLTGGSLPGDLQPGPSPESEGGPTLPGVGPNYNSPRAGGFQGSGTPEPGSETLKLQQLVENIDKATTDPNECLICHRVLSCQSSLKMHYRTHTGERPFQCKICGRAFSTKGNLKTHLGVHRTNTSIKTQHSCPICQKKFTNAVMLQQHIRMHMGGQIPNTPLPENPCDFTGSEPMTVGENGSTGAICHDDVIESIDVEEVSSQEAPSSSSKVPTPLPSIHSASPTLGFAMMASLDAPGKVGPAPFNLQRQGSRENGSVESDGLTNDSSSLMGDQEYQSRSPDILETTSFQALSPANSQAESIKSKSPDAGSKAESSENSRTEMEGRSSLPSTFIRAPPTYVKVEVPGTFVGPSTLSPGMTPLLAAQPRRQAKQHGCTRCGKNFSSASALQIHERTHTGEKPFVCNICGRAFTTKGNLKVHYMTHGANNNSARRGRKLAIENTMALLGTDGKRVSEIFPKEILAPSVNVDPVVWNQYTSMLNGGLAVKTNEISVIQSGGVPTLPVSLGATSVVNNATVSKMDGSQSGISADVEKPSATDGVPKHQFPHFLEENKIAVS"}
{"Strand": "ATGTAGTG", "E-score": 0.0907}
{"Strand": "CAGACATG", "E-score": 0.155}
{"Strand": "GGTCCAAC", "E-score": -0.279}
{"Strand": "CACGTTAC", "E-score": -0.00517}
{"Strand": "AATATAAA", "E-score": 0.431}
{"Strand": "ACCCCGCT", "E-score": -0.274}
{"Strand": "ACTCTTCT", "E-score": -0.0605}
{"Strand": "TACTAACA", "E-score": 0.243}
{"Strand": "AAGACATA", "E-score": 0.27}
{"Strand": "ACGGTAGT", "E-score": -0.0208}
{"Strand": "CATAGTCA", "E-score": 0.168}
{"Strand": "CAGAGTCG", "E-score": -0.226}
{"Strand": "CCGGGGAC", "E-score": -0.347}
{"Strand": "CTGGAGAA", "E-score": -0.158}
{"Strand": "CCTGTGGC", "E-score": -0.266}
{"Strand": "AATTTTTA", "E-score": 0.435}
{"Strand": "AGGAAAAA", "E-score": 0.277}
{"data": "Set 2", "target": "Histone acetyltransferase KAT6A, both winged helices, GST fusion (KAT6A, Homo sapiens, UniProt Q92794, residues 1-181)", "method": "protein binding microarray", "form": "double-stranded DNA, one strand shown", "medium": "in vitro", "concentration": "not given", "setting": "8-mer, flanks averaged, mean of 2 arrays, mostly near background", "reference": "not given", "direction": "higher = stronger binding", "Target sequence (chain)": "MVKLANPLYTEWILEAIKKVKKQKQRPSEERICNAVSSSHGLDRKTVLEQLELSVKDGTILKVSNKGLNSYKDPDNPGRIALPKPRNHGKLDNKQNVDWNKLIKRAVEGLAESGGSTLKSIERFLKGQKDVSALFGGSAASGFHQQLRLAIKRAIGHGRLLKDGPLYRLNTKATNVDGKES"}
{"Strand": "ATGCTAAA", "E-score": -0.154}
{"Strand": "AGTCGACC", "E-score": 0.0601}
{"Strand": "ATGTCTAG", "E-score": 0.0883}
{"Strand": "GGCAATAA", "E-score": -0.073}
{"Strand": "CCAGACCG", "E-score": 0.0856}
{"Strand": "ACGCTCGA", "E-score": 0.117}
{"Strand": "CATTCACC", "E-score": -0.0189}
{"Strand": "CCCCTTAC", "E-score": -0.0318}
{"Strand": "AACTTCCT", "E-score": -0.163}
{"Strand": "AGTGTTCG", "E-score": -0.0318}
{"Strand": "CCTGCATA", "E-score": -0.102}
{"Strand": "CTAGGGAC", "E-score": 0.0127}
{"Strand": "CGAGCCCA", "E-score": -0.0864}
{"Strand": "GATTATCC", "E-score": 0.0333}
{"Strand": "CGCCGCTA", "E-score": 0.346}
{"Strand": "TAAGCTTA", "E-score": -0.0775}
{"Strand": "GAGAAGAC", "E-score": -0.0607}
{"Strand": "GCCAAACC", "E-score": -0.00259}
{"Strand": "ACGGGCTC", "E-score": 0.217}
{"Strand": "ATGGGGAG", "E-score": -0.233}
{"Strand": "AAAAGTCG", "E-score": -0.116}
{"Strand": "AGATTTAT", "E-score": -0.00289}
{"Strand": "GCGCAGCA", "E-score": 0.151}
{"Strand": "AAGAGTGC", "E-score": -0.107}
{"Strand": "GCCCGGGA", "E-score": 0.247}
{"data": "Set 3", "target": "Interferon regulatory factor 3, full length, phosphomimetic (IRF3, Homo sapiens, UniProt Q14653, residues 1-427, S386D/S396D/S398D/S402D/T404D/S405D)", "method": "protein-binding microarray", "form": "double-stranded DNA, one strand shown", "medium": "in vitro", "concentration": "2540 nM top", "setting": "60-bp whole probe", "together with": "salmon DNA 0.4 mg/ml", "reference": "random background probes", "direction": "higher = stronger binding", "all sequences stand within": "GCCTAGCAC … GTCTTGATTCGCTTGACGCTGCTG", "Residues (chain)": "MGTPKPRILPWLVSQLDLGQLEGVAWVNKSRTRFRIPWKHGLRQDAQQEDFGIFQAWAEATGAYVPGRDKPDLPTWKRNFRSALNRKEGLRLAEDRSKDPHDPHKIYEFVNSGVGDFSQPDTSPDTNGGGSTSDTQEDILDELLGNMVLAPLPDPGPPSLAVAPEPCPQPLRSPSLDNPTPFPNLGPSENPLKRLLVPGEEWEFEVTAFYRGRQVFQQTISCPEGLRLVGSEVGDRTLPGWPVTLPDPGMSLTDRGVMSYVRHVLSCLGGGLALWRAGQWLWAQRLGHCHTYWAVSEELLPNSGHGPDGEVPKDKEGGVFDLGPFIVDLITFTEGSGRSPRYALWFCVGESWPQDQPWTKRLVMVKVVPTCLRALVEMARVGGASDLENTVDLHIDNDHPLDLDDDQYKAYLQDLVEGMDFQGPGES"}
{"Strand": "GACGATTTCAGTTTCGAGAAGTGCTAG", "fitted relative affinity [z-score]": 4.4}
{"Strand": "AGAAGATAAGCTGCAAGAAAGTGCTAG", "fitted relative affinity [z-score]": -0.695}
{"Strand": "GACGGACTGCTACTTCTGACGTGCTAG", "fitted relative affinity [z-score]": -0.347}
{"Strand": "GACGGACTGGTCTTTCGGGACGTGCTA", "fitted relative affinity [z-score]": -0.243}
{"Strand": "TCATCTCTCTTAAATAGGACTGTGCTA", "fitted relative affinity [z-score]": 1.25}
{"Strand": "GACGGGATCGGTCTCGGGACGTGCTAG", "fitted relative affinity [z-score]": 0.984}
{"Strand": "TCATTTTTAGATATCTTACTGTGCTAG", "fitted relative affinity [z-score]": 1.67}
{"Strand": "GACGGACAGCTTTTCCTGACGTGCTAG", "fitted relative affinity [z-score]": -0.324}
{"Strand": "TCATTTTTCTGAACCATACTGTGCTAG", "fitted relative affinity [z-score]": 2.12}
{"Strand": "TTAGATATCAGTTTCGGTTAGTGCTAG", "fitted relative affinity [z-score]": 6.31}
{"Strand": "GACGTTCTCGGTCTCGGGACGTGCTAG", "fitted relative affinity [z-score]": 1.46}
{"Strand": "GACGGTATCCTTTTCCCGACGTGCTAG", "fitted relative affinity [z-score]": 7.93}
{"Strand": "TTAGGTTTCGGACCGGGTTAGTGCTAG", "fitted relative affinity [z-score]": 3.22}
{"Strand": "TTAGAACTGGGGTTTCGAATAGTGCTA", "fitted relative affinity [z-score]": 0.566}
{"Strand": "TTAAGACTGGGTCTCGGTTAGTGCTAG", "fitted relative affinity [z-score]": -0.702}
{"Strand": "GACGGACTGGACTATCGAGACGTGCTA", "fitted relative affinity [z-score]": -0.558}
{"Strand": "GACCGTTCCGGTTTCGGGACGTGCTAG", "fitted relative affinity [z-score]": 5.71}
{"Strand": "GACGGTTTCGACACTCGGGACGTGCTA", "fitted relative affinity [z-score]": 2.91}
{"Strand": "TTGGGACTGCTACTGCTTTAGTGCTAG", "fitted relative affinity [z-score]": -1.22}
{"Strand": "GACGGTATCATTCTCCTGACGTGCTAG", "fitted relative affinity [z-score]": 4.45}
{"Strand": "TCATTTCTACTTCTCTTACTGTGCTAG", "fitted relative affinity [z-score]": 2.85}
{"Strand": "TTAGGGATCCTACTGCTTTAGTGCTAG", "fitted relative affinity [z-score]": 0.97}
{"Strand": "TTAGGTCTCAGACTGGATTAGTGCTAG", "fitted relative affinity [z-score]": 0.0552}
{"Strand": "TTAGAACTGGGGTCTCGATTAGTGCTA", "fitted relative affinity [z-score]": -0.992}
{"data": "Set 4", "target": "RNA binding protein fox-1 homolog 2, RRM domain, GST-SBP tag (RBFOX2, Homo sapiens, UniProt O43251-10, residues 100-194)", "method": "RNA Bind-n-Seq", "form": "RNA", "medium": "in vitro", "concentration": "365 nM", "setting": "natural RNA segment, single round, ends assumed", "reference": "no-protein control", "direction": "higher = stronger binding", "all sequences stand within": "GGGAGUUCUACAGUCCGACGAUC … UGGAAUUCUCGGGUGCCAA", "Target sequence (chain)": "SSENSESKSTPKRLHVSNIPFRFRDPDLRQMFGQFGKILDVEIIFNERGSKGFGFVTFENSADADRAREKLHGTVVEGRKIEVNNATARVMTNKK"}
{"Strand": "AAGUGACAGACGUCUACAGCAUUCCAGCUAUGAUCAUGUUGAUUCUGAAAUCAUGUAAAUUAAGAUUUGUUAGGCUGUUUUUUUUUUAAAUAAACCAUCUUUUUAUUGAU", "RBNS enrichment (R)": 0.884}
{"Strand": "GCAUGGAACUUUUUCCGUUAUCACCCAGGCCUGAUUCACUGGCCUGGCGGAGAUGCUUCUAAGGCAUGGUCGGGGGAGAGGGCCAACAACUGUCCCUCCUUGAGCACCAG", "RBNS enrichment (R)": 0.273}
{"Strand": "UUUGACCUCACCAGGCCUCAUGCUUCCCUUUAAUGUAAAGGGAAGGGGUUUGCCCACUUUCCUCUUUUUGGGGUUGGUGAGAGGGCAAACCCUGAUAUUUUUACUGUGAA", "RBNS enrichment (R)": 0.231}
{"Strand": "UUUGCUAAGAGUUUAAAAUCUUAAAACCCAUAAGUGCCACUAGGAAGGAAACCCUGUAUAUACCUACAUUGACCCAAGAAAUAUUUACGCAAUCCCUAGCAGAACAUUGU", "RBNS enrichment (R)": 0.655}
{"Strand": "GAGCAUCUGUGUGUCCUGCAGCCUCCUCUGAACUUGUGGUUCAUUCUCAGGCUGGGGUGGACUCAGAUGCCAGGAAAGGGACAGCCUCCCAUUGUCAGGCAGAAGCUGCC", "RBNS enrichment (R)": 0.394}
{"Strand": "UAAGUUAAAUUUUAAACAAUUUGAUUGUUUGCCAUAUUGGGUGGGGUUACUCUUAGAAUCGCAUGCUGUAGAAAUGCUCUAAAGUGCAUAUAGGACUCAGUCCUUAGAUG", "RBNS enrichment (R)": 1.64}
{"Strand": "UGCAAGUUGACUCUGGUUAUGCAAGAAUGUGUAACAGAUCAAGAGAUCCUCUCAAGUGUCUAUUAGAUAGGCAAUAAGAACUGCAGUGUAGCUGGGAAGCAUCUUUUAGC", "RBNS enrichment (R)": 3.03}
{"Strand": "AAUGAGCUGACUGUCUAUUUUAAACUCGAAGGUAAAAAAAUGUAUAUUAUAUUUUUUCACUAUAGGUACAUGUAACAGUAAAACGUGUAACAGCAAAGUAUAUAUUUGAU", "RBNS enrichment (R)": 0.513}
{"Strand": "GAAAGGGGUUUAUGUAUAAAUAUAUUUUAUGCCUUUUUAUUACAAGUCUUGUUACUCAAUGACUUUUGUCAUGGCAGUUUGUUCUACUUUAGACUGUAAAUUAUGCAUUA", "RBNS enrichment (R)": 0.964}
{"Strand": "ACAGAGUAAAUCAAUUUCUUAAAUUGUUUAACUUUCACGGUACUUCUUGGAAACAAUGACAUUAAACAUAGAUUUGUGCCUUUGUGGCUCAGCCUGCUCUUUCAUAGUCA", "RBNS enrichment (R)": 0.247}
{"Strand": "GUCUGUCCUGUCUGGGCACUAACCUUGGUCCCAUGCAUGUUUAUGUUCUGGGUGGGGCUUUGCCUCUCCACUGGGAAACUGACUUUUGCUGGGUUGAACAGAGUCCCUUA", "RBNS enrichment (R)": 0.537}
{"Strand": "UCUUAUUCUUUGGUUUAAAUACUGAAACAUGAUUAAUUGCUAACUACAGCUUAGAAACCCAAUAUCAGUUGUACUUAACAUCUUUAAGAGCAUGAUCAUAAAGGCUAUUU", "RBNS enrichment (R)": 0.479}
{"data": "Further values, each from its own experiment"}
{"Strand": "GGGAGUUCUACAGUCCGACGAUCUGUGAGCGUCUACAGACAGCUCACCAUUUUUGUCCUGUAUCUGUAAACACUUUUUGUUCUCCGUCUUUUUCUUGUAAAAUUGAUGUUCUUUAAAAUCGUUAAUGUAUAACAGGGCUUAUGCAACAGAGGAUUGAGCAUCA", "target": "RING finger protein unkempt homolog, zinc fingers 1-6, SBP tag (UNK, Homo sapiens, UniProt Q9C0B0, residues 30-357)", "assay": "RNA Bind-n-Seq", "system": "RNA, in vitro", "conditions": "100 nM, RNA with constant flanks, ends assumed", "scale": "reference: input RNA pool, higher = stronger binding", "measurement": "bound/input enrichment", "result": "0.214 ratio"}
{"note": "Excerpt of the above (set 1):"}
{"Strand": "CACGTTAC", "E-score": -0.00517}
{"Strand": "AATATAAA", "E-score": 0.431}
{"Strand": "ACCCCGCT", "E-score": -0.274}
{"Strand": "ACTCTTCT", "E-score": -0.0605}
{"Strand": "TACTAACA", "E-score": 0.243}
{"Strand": "AAGACATA", "E-score": 0.27}
